Assay results collected from several papers.
Numbered parts are unrelated; each lists some results of a single study. Several values in a cell are separate wells, animals, samples, runs or records.
Sequence of UniProt P42681 (whole entry, looked up): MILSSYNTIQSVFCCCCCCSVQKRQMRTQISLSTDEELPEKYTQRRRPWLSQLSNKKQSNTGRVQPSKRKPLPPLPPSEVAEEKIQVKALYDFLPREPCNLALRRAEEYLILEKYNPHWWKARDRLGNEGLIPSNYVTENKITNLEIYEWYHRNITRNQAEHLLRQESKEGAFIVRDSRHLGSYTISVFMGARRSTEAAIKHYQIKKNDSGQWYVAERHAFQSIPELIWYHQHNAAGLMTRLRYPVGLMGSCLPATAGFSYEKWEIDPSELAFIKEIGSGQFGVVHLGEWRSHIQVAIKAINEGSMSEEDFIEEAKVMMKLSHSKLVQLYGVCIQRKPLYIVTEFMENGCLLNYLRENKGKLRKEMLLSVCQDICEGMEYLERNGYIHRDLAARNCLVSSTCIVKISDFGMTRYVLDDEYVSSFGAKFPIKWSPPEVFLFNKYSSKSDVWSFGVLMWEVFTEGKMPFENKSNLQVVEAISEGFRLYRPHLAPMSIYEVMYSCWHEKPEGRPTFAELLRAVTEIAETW
Sequence of UniProt Q9H4B4 (whole entry, looked up): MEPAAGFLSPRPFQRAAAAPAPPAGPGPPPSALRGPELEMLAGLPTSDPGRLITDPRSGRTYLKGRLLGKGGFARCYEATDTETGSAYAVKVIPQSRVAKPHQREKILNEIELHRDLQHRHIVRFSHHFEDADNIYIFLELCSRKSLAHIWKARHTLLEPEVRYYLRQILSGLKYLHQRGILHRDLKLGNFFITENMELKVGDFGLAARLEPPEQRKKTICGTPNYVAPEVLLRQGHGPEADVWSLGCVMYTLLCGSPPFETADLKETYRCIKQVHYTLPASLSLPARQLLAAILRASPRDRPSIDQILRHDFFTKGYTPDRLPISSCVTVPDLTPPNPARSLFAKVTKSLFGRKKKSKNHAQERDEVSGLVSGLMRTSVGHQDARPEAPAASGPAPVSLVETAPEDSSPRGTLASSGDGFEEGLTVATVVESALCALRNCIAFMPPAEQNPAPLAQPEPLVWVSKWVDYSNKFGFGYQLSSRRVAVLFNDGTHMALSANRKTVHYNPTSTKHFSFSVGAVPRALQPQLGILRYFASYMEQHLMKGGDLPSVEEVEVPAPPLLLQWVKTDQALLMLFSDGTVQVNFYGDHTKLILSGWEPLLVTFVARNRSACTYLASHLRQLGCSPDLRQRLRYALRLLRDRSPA
Sequence of UniProt P28482 (whole entry, looked up): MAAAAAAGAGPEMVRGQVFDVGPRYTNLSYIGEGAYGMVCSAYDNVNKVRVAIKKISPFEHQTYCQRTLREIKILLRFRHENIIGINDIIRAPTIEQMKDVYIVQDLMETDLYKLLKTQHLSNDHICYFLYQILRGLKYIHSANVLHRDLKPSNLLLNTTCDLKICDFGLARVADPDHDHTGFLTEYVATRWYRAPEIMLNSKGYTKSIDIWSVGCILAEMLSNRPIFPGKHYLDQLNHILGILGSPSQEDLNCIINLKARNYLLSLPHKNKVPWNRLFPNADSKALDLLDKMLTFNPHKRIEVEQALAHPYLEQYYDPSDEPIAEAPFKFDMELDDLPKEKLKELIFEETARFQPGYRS

Sample 1
Target: Calcium/calmodulin-dependent protein kinase type II subunit alpha (CAMK2A, Homo sapiens, UniProt Q9UQM7)
Sequence of UniProt Q9UQM7 (whole entry, looked up): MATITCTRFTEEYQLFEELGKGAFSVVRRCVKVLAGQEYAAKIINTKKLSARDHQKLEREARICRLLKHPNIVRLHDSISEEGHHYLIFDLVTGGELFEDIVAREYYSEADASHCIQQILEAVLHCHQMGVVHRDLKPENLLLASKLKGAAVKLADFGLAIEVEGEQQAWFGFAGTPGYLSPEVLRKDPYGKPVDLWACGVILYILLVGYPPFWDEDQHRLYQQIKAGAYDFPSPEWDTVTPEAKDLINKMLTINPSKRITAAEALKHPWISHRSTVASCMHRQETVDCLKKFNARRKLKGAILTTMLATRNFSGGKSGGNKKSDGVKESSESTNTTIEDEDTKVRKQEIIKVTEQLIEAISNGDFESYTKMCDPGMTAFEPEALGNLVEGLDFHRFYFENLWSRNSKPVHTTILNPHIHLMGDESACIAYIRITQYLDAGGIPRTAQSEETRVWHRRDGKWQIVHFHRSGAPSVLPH
Read-out: enzyme activity
Mode: inhibitor
Concentration: 10 µM
SMILES	inhibition
C=C(C)[C@@H]1CC[C@]2(C(=O)O)CC[C@]3(C)[C@H](CC[C@@H]4[C@@]5(C)CC[C@H](OC(=O)CC(C)(C)C(=O)O)C(C)(C)[C@@H]5CC[C@]43C)[C@@H]12	-9%
CCCCCCCCCCCCCCCCCC(=O)NCc1ccccc1	-90%
CC(C)CCC[C@@H](C)[C@H]1CC[C@H]2C3=CC[C@H]4C[C@@H](O)CC[C@]4(C)[C@H]3CC[C@]12C	-20%
C[C@@H](O)[C@H]1C(=O)N2C(C(=O)OCOC(=O)C(C)(C)C)=C(SC3CN(C4=NCCS4)C3)[C@H](C)[C@H]12	-8%
C[C@]12C=CC(=O)N[C@@H]1CC[C@@H]1[C@@H]2CC[C@]2(C)[C@@H](C(=O)Nc3cc(C(F)(F)F)ccc3C(F)(F)F)CC[C@@H]12	-4%
CC(C)C(=O)c1c(C(C)C)nn2ccccc12	-3%
O=c1[nH]c(=O)n([C@H]2C[C@H](O)[C@@H](CO)O2)cc1F	2%
Cn1c(=O)[nH]c(=O)c2[nH]cnc21	30%

Sample 2
Target: D(4) dopamine receptor (DRD4, Homo sapiens, UniProt P21917)
Sequence of UniProt P21917 (whole entry, looked up): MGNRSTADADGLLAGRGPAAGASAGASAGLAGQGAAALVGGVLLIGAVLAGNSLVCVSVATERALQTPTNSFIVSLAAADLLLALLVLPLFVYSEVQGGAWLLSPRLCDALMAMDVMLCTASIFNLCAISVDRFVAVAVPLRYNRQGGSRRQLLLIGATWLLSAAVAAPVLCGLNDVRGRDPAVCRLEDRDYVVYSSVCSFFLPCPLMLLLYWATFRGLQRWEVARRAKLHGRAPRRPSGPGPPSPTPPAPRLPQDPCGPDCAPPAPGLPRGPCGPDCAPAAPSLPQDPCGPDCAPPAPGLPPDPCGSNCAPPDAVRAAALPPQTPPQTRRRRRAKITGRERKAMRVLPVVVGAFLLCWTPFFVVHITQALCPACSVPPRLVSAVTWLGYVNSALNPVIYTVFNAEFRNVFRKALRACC
Read-out: binding
Method: radioligand binding
Concentration: 10 µM
Compound	inhibition [%]
CC(C)(O)c1cncc(-c2nc3ccc(F)cc3n2C2CC2)c1	-5.72
O=C(NC[C@@H]1[C@H]2CN(C(=O)OCc3cc(C(F)(F)F)cc(C(F)(F)F)c3)C[C@@H]12)c1ccc2[nH]nnc2c1	6.75
O=C(Nc1cccnn1)N1CCC(=Cc2cccc(Oc3ccc(C(F)(F)F)cn3)c2)CC1	-6.93
CNC(=O)c1ccc(Nc2ncc(C(F)(F)F)c(NCc3nccnc3N(C)S(C)(=O)=O)n2)cc1	7.8
CCOCCn1cc(C(=O)Nc2ccc(-n3nc(-c4cccnc4)cc3C(F)(F)F)cn2)ccc1=O	-3.89
C[C@H](NC(=O)c1cnc2n1[C@](C)(Cc1ccc(C#N)cc1)C(=O)N2c1cc(Cl)c(F)c(Cl)c1)C(=O)NC1(c2ccccn2)CC1	-2.68
CC1=C(C#N)C(c2ccc3c(c2)c(NC(=O)c2ccccc2C)nn3C)C(C#N)=C(C)N1	0.21

Sample 3
Target: DNA polymerase theta, ATPase domain (POLQ, Homo sapiens, UniProt O75417)
Sequence of UniProt O75417 (whole entry, unmodified, looked up): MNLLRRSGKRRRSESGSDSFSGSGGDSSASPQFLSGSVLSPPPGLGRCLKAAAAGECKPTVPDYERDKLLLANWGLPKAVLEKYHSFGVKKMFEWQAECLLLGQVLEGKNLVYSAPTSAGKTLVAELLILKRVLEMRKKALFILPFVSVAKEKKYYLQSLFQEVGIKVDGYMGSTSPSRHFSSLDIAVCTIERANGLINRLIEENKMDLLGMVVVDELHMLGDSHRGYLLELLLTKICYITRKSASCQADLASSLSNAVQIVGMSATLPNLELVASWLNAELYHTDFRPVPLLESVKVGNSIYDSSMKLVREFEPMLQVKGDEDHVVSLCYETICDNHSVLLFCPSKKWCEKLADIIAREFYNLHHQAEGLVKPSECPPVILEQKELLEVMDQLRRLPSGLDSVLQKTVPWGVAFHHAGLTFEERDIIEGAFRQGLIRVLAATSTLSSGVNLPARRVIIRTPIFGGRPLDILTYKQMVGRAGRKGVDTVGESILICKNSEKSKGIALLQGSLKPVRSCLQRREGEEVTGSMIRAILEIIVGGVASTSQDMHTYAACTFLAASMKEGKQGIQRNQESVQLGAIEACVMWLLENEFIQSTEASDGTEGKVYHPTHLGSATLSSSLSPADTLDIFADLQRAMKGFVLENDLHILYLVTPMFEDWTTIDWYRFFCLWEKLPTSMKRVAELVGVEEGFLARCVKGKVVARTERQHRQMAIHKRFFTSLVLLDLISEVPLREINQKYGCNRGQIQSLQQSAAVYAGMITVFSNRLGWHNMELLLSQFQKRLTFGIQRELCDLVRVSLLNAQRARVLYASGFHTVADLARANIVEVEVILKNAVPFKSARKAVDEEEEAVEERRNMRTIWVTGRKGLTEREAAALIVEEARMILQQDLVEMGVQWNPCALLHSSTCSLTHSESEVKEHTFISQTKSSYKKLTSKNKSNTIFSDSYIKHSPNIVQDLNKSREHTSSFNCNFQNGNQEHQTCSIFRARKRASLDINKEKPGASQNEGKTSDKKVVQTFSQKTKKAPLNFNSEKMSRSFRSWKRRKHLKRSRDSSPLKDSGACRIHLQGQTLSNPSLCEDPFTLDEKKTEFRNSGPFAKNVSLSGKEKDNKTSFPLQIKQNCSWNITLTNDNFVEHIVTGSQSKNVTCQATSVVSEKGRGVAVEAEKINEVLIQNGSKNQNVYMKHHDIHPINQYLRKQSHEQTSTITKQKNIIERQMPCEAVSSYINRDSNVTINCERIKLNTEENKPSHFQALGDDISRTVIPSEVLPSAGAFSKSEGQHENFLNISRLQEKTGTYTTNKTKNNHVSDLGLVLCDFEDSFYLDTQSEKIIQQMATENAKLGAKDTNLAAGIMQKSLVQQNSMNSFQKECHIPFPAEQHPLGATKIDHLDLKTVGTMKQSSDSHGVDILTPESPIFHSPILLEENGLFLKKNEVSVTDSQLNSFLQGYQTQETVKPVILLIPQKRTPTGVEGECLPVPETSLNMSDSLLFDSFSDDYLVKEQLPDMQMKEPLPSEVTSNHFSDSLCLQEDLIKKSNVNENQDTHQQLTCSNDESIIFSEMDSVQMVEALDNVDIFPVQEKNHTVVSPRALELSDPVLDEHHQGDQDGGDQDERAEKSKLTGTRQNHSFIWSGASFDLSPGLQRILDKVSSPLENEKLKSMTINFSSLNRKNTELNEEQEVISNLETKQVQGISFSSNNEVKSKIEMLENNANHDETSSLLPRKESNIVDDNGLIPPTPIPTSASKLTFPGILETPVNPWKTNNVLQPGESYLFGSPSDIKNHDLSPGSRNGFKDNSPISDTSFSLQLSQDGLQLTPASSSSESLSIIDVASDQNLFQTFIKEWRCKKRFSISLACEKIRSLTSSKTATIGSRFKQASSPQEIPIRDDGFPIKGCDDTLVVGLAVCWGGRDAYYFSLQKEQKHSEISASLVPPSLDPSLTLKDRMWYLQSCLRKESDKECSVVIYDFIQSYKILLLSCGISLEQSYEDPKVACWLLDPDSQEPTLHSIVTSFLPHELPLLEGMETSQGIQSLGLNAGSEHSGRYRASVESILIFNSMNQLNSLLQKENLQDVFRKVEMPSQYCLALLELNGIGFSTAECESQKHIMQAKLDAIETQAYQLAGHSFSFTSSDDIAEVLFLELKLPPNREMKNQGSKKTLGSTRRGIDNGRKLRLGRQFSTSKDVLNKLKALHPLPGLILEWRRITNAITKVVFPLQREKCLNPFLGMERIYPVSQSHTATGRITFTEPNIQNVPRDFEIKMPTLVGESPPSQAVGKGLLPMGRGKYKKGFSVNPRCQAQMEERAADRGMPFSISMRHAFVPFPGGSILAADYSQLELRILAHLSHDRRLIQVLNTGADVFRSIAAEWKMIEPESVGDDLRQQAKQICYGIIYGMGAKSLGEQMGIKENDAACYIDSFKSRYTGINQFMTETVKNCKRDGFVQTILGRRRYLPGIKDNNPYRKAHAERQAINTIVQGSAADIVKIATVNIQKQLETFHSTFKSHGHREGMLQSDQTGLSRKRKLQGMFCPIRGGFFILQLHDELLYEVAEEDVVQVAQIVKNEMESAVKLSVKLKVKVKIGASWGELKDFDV
Read-out: enzyme activity
Mode: inhibitor
Concentration: 77 µM
Baseline: untreated
SMILES	remaining activity
CNC(=O)[C@H]1O[C@@H](n2cnc3c(NCc4cccc(I)c4)ncnc32)[C@H](O)[C@@H]1O	107%
O=c1cc(N2CCNCC2)oc2c(-c3ccccc3)cccc12	103%
CCN1CCN(C(=O)N[C@@H](C(=O)N[C@@H]2C(=O)N3C(C(=O)O)=C(CSc4nnnn4C)CS[C@H]23)c2ccc(O)cc2)C(=O)C1=O	98.1% and 101%
CC1CC(OC(=O)C(O)c2ccccc2)CC(C)(C)C1 (centres unmarked)	98.2%
CC(C)CC(=O)Nc1n[nH]c2c1CN(C(=O)C1CCN(C)CC1)C2(C)C	100%
Cc1[nH]c(/C=C2\C(=O)Nc3ccc(S(=O)(=O)Cc4c(Cl)cccc4Cl)cc32)c(C)c1C(=O)N1CCC[C@@H]1CN1CCCC1	116%
O=c1[nH]c2ccccc2c2ccccc12	107%

Sample 4
Compound: COc1cc(C(=O)N2CCC(N3CCN(C)CC3)CC2)ccc1Nc1ncc2c(n1)N(C)c1ccccc1C(=O)N2C
target or system	assay	test system	setting	inhibition [%]
TBK1 mouse	KiNativ profiling	mouse brain lysate	0.1 µM, LYS1 site, together with: ADP acyl phosphate probe	0
ZC1/HGK (mouse)	probe labelling, KiNativ, measured: LYS1 site peptide	brain tissue lysate (mouse)	1 µM, together with: ATP acyl-phosphate probe	0.4
human PBMC	probe labeling, inhibitor, KiNativ profiling, measured: DIkPSNILLDR	cell lysate	concentration not given, LYS2 site, together with: ATP acyl-phosphate probe	-0.2
mouse ROCK1 and ROCK2	probe labelling, KiNativ ADP probe	mouse brain lysate	1 µM	-7.7
MAP/microtubule affinity-regulating kinase 4 (Mus musculus, UniProt Q8CIP4)	KiNativ profiling	mouse brain lysate	1 µM, LYS1 site, together with: ATP acyl phosphate probe	0.3
CaMKK1 (mouse)	probe labelling, KiNativ, measured: Lys1 site peptide	brain tissue lysate (mouse)	1 µM, together with: ADP acyl-phosphate probe	11.5
ILK (mouse)	probe labelling, KiNativ ATP probe	mouse brain lysate	0.1 µM, LYS1 labelled site	7.1
mouse NUAK1	probe labelling, KiNativ ADP probe	mouse brain lysate	0.1 µM	2.4
PKD2 human	KiNativ profiling	human PBMC	0.1 µM, LYS1 site, together with: ADP acyl phosphate probe	-1.6

Sample 5
SMILES: CC(C)(C)c1nc2c3cc[nH]c(=O)c3c3cc(F)ccc3c2[nH]1
Read-out: enzyme activity
Mode: inhibitor
Concentration: 0.5 µM
Baseline: control
target	remaining activity [%]
KDR (Homo sapiens, UniProt P35968)	103
CDC42BPB (Homo sapiens, UniProt Q9Y5S2)	96.8
CLK3 (Homo sapiens, UniProt P49761)	50.5
PRKG2 (Homo sapiens, UniProt Q13237)	14.3
TXK (Homo sapiens, UniProt P42681)	77.1
RPS6KA4 (Homo sapiens, UniProt O75676)	44.7
Cyclin-dependent kinase 1, with cyclin A (CDK1, Homo sapiens, UniProt P06493)	89.4
GRK4 (Homo sapiens, UniProt P32298)	74.2
PLK3 (Homo sapiens, UniProt Q9H4B4)	11
MAPK1 (Homo sapiens, UniProt P28482)	96.1
MARK2 (Homo sapiens, UniProt Q7KZI7)	41.5
DCLK2 (Homo sapiens, UniProt Q8N568)	65.8
MARK4 (Homo sapiens, UniProt Q96L34)	44.5
MINK1 (Homo sapiens, UniProt Q8N4C8)	52
NEK3 (Homo sapiens, UniProt P51956)	74.4
CLK4 (Homo sapiens, UniProt Q9HAZ1)	70.7
MAPK14 (Homo sapiens, UniProt Q16539)	93.5
ROCK1 (Homo sapiens, UniProt Q13464)	74.9
MAPK11 (Homo sapiens, UniProt Q15759)	83.4
Cyclin-dependent kinase 9, with cyclin K (CDK9, Homo sapiens, UniProt P50750)	92.3
PNCK (Homo sapiens, UniProt Q6P2M8)	112
MAP2K1 (Homo sapiens, UniProt Q02750)	94.9
PAK3 (Homo sapiens, UniProt O75914)	90.1
CAMK4 (Homo sapiens, UniProt Q16566)	81.8
AKT2 (Homo sapiens, UniProt P31751)	89.8

Repeated from above (sample 4):
target or system	assay	test system	setting	inhibition [%]
MAP/microtubule affinity-regulating kinase 4 (Mus musculus, UniProt Q8CIP4)	KiNativ profiling	mouse brain lysate	1 µM, LYS1 site, together with: ATP acyl phosphate probe	0.3
CaMKK1 (mouse)	probe labelling, KiNativ, measured: Lys1 site peptide	brain tissue lysate (mouse)	1 µM, together with: ADP acyl-phosphate probe	11.5
ILK (mouse)	probe labelling, KiNativ ATP probe	mouse brain lysate	0.1 µM, LYS1 labelled site	7.1
mouse NUAK1	probe labelling, KiNativ ADP probe	mouse brain lysate	0.1 µM	2.4
PKD2 human	KiNativ profiling	human PBMC	0.1 µM, LYS1 site, together with: ADP acyl phosphate probe	-1.6
